Experimental data from different studies.
A part holds a random share of what one study measured. Substitutions count along the parent as printed.

Set 1 — method: universal PBM; form: double-stranded DNA, one strand shown; medium: in vitro; tested at: not given; direction: higher = stronger binding
Target: Sal-like protein 4, full length isoform B (SALL4, Homo sapiens, UniProt Q9UJQ4-2, residues 1-616)
Setting: 8-mer, flanks averaged, mean of replicates
Target sequence (chain): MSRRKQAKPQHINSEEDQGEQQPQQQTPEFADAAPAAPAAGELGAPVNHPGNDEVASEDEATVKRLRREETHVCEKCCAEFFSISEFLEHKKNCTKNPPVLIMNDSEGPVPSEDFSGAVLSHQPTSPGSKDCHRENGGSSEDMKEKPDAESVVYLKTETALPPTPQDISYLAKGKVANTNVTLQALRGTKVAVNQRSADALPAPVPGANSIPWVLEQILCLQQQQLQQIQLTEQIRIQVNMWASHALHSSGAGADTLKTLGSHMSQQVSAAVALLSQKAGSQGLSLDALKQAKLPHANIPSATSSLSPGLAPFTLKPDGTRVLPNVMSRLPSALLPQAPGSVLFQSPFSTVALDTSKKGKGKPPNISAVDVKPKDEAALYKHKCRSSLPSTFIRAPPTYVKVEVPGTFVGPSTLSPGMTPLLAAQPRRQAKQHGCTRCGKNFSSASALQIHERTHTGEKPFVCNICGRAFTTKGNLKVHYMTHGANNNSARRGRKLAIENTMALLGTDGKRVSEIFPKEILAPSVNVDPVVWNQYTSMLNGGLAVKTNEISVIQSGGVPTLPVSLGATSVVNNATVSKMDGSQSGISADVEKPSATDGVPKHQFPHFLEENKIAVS
Strand	E-score
CCCATTGC	-0.15
ATTCGTGC	0.0638
CGATTCAA	0.00257
GTAGAGCA	-0.0604
ACCCTATG	0.0769
TGACTCCA	-0.143
CCATGGCA	-0.156
AACGCCCT	-0.0214
CACGGCAA	-0.0162
GACCTAGC	-0.142
GACTGAGA	-0.0349
CGGACTAC	-0.0571
ACTCCCCC	-0.182
ATTTTCGA	0.223
AGTACCGC	-0.152
CACCTTCG	-0.109
GACATTCC	-0.00758
ACGGCTCG	-0.321
CCCATCCG	-0.159
CCAGATGA	-0.029
AGCGACCC	-0.285
CTGTCTAA	-0.055

Set 2 — target: CCND3, cyclin fold, Cln2 fusion (human); method: yeast growth competition, sequencing; medium: yeast; setting: weak parent motif; relative to: not given; direction: higher = stronger binding
Parent: GMNC docking peptide (human); KNAKRNLSSEFAN; partner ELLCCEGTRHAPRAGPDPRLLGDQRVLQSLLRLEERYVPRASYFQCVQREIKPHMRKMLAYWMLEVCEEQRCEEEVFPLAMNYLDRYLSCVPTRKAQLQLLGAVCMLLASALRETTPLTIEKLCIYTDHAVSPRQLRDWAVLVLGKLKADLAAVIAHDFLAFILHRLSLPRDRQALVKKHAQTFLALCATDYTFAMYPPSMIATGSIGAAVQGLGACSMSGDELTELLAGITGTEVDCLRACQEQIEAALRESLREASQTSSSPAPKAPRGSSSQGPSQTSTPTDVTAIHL
Substitution	normalised enrichment score
F11E	0.049
R5L	0.0215
A3C	0.0284
K4V	-0.103
S9D	0.358
K4S	0.13
F11R	0.114
A3D	0.312
L7H	0.439
L7D	0.922
A3F	0.509
A12T	0.123
F11H	0.129
A3L	-0.0487
N2S	0.329
S9I	0.199
N2H	0.223
F11P	-0.316
S9G	0.391
N2K	0.648
A12Q	-0.119
N6W	-0.0227
N6K	-0.0947
N2E	0.436
S8R	0.195

Set 3 — method: competition protein-binding microarray; form: double-stranded DNA, one strand shown; medium: in vitro; tested at: 2 µM; together with: Cbf1 competitor, 0.05 µM; direction: higher = stronger binding; constant ends, left off below: … GTCTTGATTCGCTTGACGCTGCTG
Target: Phosphate system positive regulatory protein PHO4, full length, GST-tagged (PHO4, Saccharomyces cerevisiae, UniProt P07270, residues 1-312)
Setting: whole 60-bp probe, lowest competitor level
Residues (chain): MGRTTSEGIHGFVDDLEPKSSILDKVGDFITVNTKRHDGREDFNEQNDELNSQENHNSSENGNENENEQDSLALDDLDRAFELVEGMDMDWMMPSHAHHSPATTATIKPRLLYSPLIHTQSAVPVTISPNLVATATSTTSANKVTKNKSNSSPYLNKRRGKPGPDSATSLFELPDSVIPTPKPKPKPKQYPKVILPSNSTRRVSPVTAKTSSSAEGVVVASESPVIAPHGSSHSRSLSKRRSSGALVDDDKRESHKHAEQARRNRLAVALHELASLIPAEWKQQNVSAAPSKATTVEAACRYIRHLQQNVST
Strand	fluorescence intensity
CGTCCTAGTGATTGTCACATAACTTCCATGAGGAAG	5020 a.u.
AGAACACCTTAGAACCACATGATGCGTACCTACTAC	7470 a.u.
GGGAAATAGACGTCGCACACGCCGAAGTATGTGTCC	7490 a.u.
TTGGTAGAGGCGGTTCTCGTGGTGAAGCCCCTGGTG	5580 a.u.
GTTATAAAAATATGTCAGGTGATTTTTTTTTCTCTT	3970 a.u.
TGAACCCTTTTTGAGCATGTGTCAAAATCCAATGCA	10000 a.u.
GTCTTGTCTCATTGACCCGTGGGTGTCCCCACTTCA	8280 a.u.
ACCGAAATTTCTCCACACGTGATGGTAAGTGTATTT	14600 a.u.
TAGTTGTCGTCGTTTCATGTGACGGATTCCCCTTTA	4250 a.u.
CGGGGTTAAGTTTGAGTGGTGGGTGGCTTGCAGCAG	4860 a.u.
CGTCCTAGCGATTGAGATGTGGGTGCCATGAGGAAG	7110 a.u.
TGGCCAAGGTTGTTTTCCGTGACTCGTACAAGTACA	3050 a.u.
CGTCCTAGTGATTGGTTGGTGGGTGCCATGAGGAAG	7080 a.u.
CCCATTGAATTCGGGAATGTGCGGGTTTCAGATTGC	6570 a.u.
CGTCCTAGTGATTGTCACTTTACTTCCATGAGGAAG	4700 a.u.
ATAGAAAACTGCATAGTCGTGCTTTCAAACCTTTCT	7380 a.u.
CGGGGTTAAGTTTGCTTGGTGGGTGGCTTGCAGCAG	4290 a.u.
ATAGAACGCAGAGCCCACGTGTGCCTGGCACTTGGC	16700 a.u.
CGCCAAAGTTCTTGCCTCGTGGTCGTTGGCCTTCGC	10500 a.u.

Set 4 — method: RNA Bind-n-Seq; form: RNA; medium: in vitro; tested at: 365 nM; relative to: no-protein control; direction: higher = stronger binding
Target: RNA binding protein fox-1 homolog 2, RRM domain, GST-SBP tag (RBFOX2, Homo sapiens, UniProt O43251-10, residues 100-194)
Setting: natural RNA segment, single round, ends assumed
Constant ends, left off below: GGGAGUUCUACAGUCCGACGAUC … UGGAAUUCUCGGGUGCCAA
Residues (chain): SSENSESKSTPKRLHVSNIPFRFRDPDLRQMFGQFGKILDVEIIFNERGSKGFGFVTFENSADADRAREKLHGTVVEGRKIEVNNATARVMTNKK
Strand	RBNS enrichment (R)
UUUGUAAUGAAAUACUUCCUCUUUUCCAGGGCUUUGUAUGCACUUGUAUAAUUACAUUGAUGGCAAUGUAGAGUUUGAAUUUCAGUCUGUAAAUACUUUUUUGGAAAAUA	1.4
GAGAGUGAGUGAUGGUCUUGGAAAGGAGCUGGGGUGUGGAUGCUAAAGCCCCCAUUCAUACAAACAAGCAGUAAACAGCCUACCCUGGAAAUACCCCUAGUCCCCAAAGU	0.477
AAUGUGAUAUUUGUUGACAUUUUCCUGGCUAAUAUUUAAAAUUCAUUGGAAAAGAUUUUCAAAAUUAAUAUAAAGUGCAGAAGUUAAAAAUCUAAUAUUUAGUUGUUUAG	0.646
UUUUUAGUCUAGCCUGUUUGAUUACUUGUAAAUCUCUGCUAGAAGGAGAGAAUUUUCCAGACAACUGAAUGAAUGAUAAUCCUGGAAGUCAGGUCUAGGAUGAUUAGGGU	1
CGAGGGGAUGGGGAUGCUUCCGCCUUUCCGGGGCUGCUGGCCUGGCCCUUGAGUGGGGCAGCCUCCUUGCCUGGAACUCACUCACUCUGGGUGCCUCCUCCCCAGGUGGA	0.4
GAGAGAAGGUGUGUCUGUGGUUCAGGAACAAGCUGUACAUUUUUCACCCUGACUAUGGGACGGAAAUCAGUGCUGCAUCUUCAUGGGCUGCUCUGCUCGGAGAUGGGGCC	0.332
UUUUAAUACUAAACCUUACAGUCAGGAUUUGGAGUUCUUACAUCAUAUAUAAUAUGUAAUAAACCAGGAUGAAUAUUGCAUAUUCAAUAUCUCCAGUUUUAAUAGUGGCA	1
UUCAGAUGAGGCAACAUUUUCUUGAGAUAAUUACCCAAGUUUCAUCCAUGUUGAAUGGUACAAAAUAUUUCUGUGAAACUAACAGGAAGAUAUUUUCAGAUAACUAGGAU	0.324

Some of these lines once more (set 2):
Substitution	normalised enrichment score
A12Q	-0.119
A3C	0.0284
N2H	0.223
S8R	0.195
S9I	0.199
L7H	0.439
A3F	0.509
F11H	0.129
F11P	-0.316
